Experimental data collected from several papers.
Each line is one published result; not all experiments were run side by side. ± gives the spread as reported.

| SMILES | assay | system | setting | how to read | measurement | result |
| --- | --- | --- | --- | --- | --- | --- |
| C[C@]12CC[C@@H]3c4ccc(O)cc4CC[C@H]3[C@@H]1CCC2=O | – | whole cow milk | 200 nM nominal | – | dose fraction in skim milk | 23.4% |
| Cc1cn(C(=O)c2c(-c3c(Cl)cc(Cl)cc3Cl)noc2C(C)(C)F)c2cccc(/C=C/C(=O)O)c12 | – | human patients | 1400 mg bid, cycle 8 day 1 | – | AUC(0-8h) | 313 µg·h/mL |
| CC(C(=O)NCC(=O)NCC(CNC(=O)CNC(=O)C(C)N1CCN(CC(=O)[O-])CCN(CC(=O)[O-])CCN(CC(=O)[O-])CC1)(CNC(=O)CNC(=O)C(C)N1CCN(CC(=O)[O-])CCN(CC(=O)[O-])CCN(CC(=O)[O-])CC1)CNC(=O)CNC(=O)C(C)N1CCN(CC(=O)[O-])CCN(CC(=O)[O-])CCN(CC(=O)[O-])CC1)N1CCN(CC(=O)[O-])CCN(CC(=O)[O-])CCN(CC(=O)[O-])CC1.[Gd+3].[Gd+3].[Gd+3].[Gd+3] (centres unmarked) | ICP-MS | rat, femur bone marrow | intravenous, 0.6 mmol Gd/kg, 1 week | – | Gd concentration | 3 nmol/g |
| CC(C)(c1ccc(O)cc1)c1ccc(O)cc1 | – | cow whole milk | 200 nM | reference: milk fat over skim milk | milk fat partition ratio | 13.9 |
| NC(=O)CCNC(=O)c1ccc(C2CCCCC2)cc1 | hepatocyte stability | cryopreserved rat hepatocytes | 1 µM | – | hepatic clearance | 2.82 L/h/kg |
| C=CC(=O)Nc1cc(Nc2nccc(-c3cn(C)c4ccccc34)n2)c(OC)cc1N(C)CCN(C)C | storage stability | human dried blood spot | 2 h, on ice, HQC level | – | recovery | 106% |
| CC(C)C(=O)O[C@H]1[C@H](C)OC(=O)[C@@H]1Cc1ccccc1 | – | clay soil | pH 7.3, organic carbon 5.6 % | – | KFoc | 58 mL/g |
| c1ccc(-c2nc(N3CCC(c4ccccn4)C3)c3ccccc3n2)nc1 (centres unmarked) | – | female Balb/c mice, plasma | intravenous, 2 mg/kg, mean, together with: ABT 2 h prior | – | MRT(0-inf) | 3.2 h |
| CCCCCCCCCCCCCCCC(=O)N[C@@H](CCC(=O)NCCCC[C@@H]1NC(=O)[C@H]([C@@H](C)CC)NC(=O)[C@@H](NC(=O)[C@@H]2CCCN2C(=O)[C@H](Cc2ccccc2)NC(=O)[C@H](Cc2c[nH]cn2)NC(=O)[C@@H](NC(=O)[C@H](CC(=O)O)NC(=O)CC(C)C)[C@@H](C)O)CSSC[C@@H](C(=O)N[C@@H](CCCCN)C(N)=O)NC(=O)CNC(=O)[C@H](CCCCN)NC(=O)[C@H](CO)NC(=O)[C@H](CCCNC(=N)N)NC(=O)[C@@H]2CCCN2C(=O)[C@H](CCC(=O)O)NC(=O)[C@H](Cc2ccccc2)NC1=O)C(=O)O | – | healthy volunteers, plasma | subcutaneous, 20 mg single, lyophilised formulation | – | half-life | 28.6 ± 11.3 h |
| COc1ncc(-c2nc3c(n2C(C)C)[C@H](c2ccc(Cl)cc2)N(c2cc(Cl)cn(C)c2=O)C3=O)c(OC)n1 | – | human patients, plasma | oral, 100 mg, high-dose arm, cycle 1 day 1 | – | AUC(0-t) geometric mean | 14.3 µg·h/mL |
| CN(CCC#N)C(=O)c1ccc(C2CCCCC2)cc1 | liver microsome stability | rat liver microsomes | 1 µM | – | hepatic clearance | 3.12 L/h/kg |
| COc1ccc(/N=N/c2cccc(CN3CCC(C(=O)NC(C)(C)C)CC3)c2)cc1 | – | DMSO | 25 µM, 25 °C | – | absorption maximum, cis isomer | 444 nm |
| Cn1cc(Nc2nccc(-c3ccc4c(c3)CN(C3COC3)CC[C@H]4NC(=O)c3cn(C(C)(C)C)nn3)n2)cn1 | – | human, whole blood | 150 mg twice daily, day 7 | reference: pre-dose baseline | CD3+ T cell count change | -2.63% |
| CNC(=O)c1ccc(-c2cnc3ncc(Cc4ccc5ncccc5c4)n3n2)cc1F | refers to: Pruritus | cancer patients | oral, dose not given, dose escalation, grade 3-4 | – | patients with adverse event | 3% |
| CCC(C)n1ncn(-c2ccc(N3CCN(c4ccc(OCC5COC(Cn6cncn6)(c6ccc(Cl)cc6Cl)O5)cc4)CC3)cc2)c1=O (centres unmarked) | refers to: painful defaecation | healthy human participants | oral, 200 mg, compound alone cohort | – | adverse event incidence | 0% |
| N#CCC(=O)Nc1ccc([C@H]2[C@@H](F)[C@@H](F)C[C@@H](F)[C@H]2F)cc1 | liver microsome stability | cynomolgus liver microsomes | 1 µM | – | hepatic clearance | 1.08 L/h/kg |
| COc1cc2nccc(Oc3ccc(NC(=O)c4cc5c(n(-c6ccccc6)c4=O)CCCC5=O)nc3)c2cc1OC | – | relapsed or refractory AML | oral, 10 mg once daily | – | grade ≥3 Fatigue patients | 0% |
| CCCCC1=NC2(CCCC2)C(=O)N1Cc1ccc(-c2ccccc2S(=O)(=O)Nc2noc(C)c2C)c(COCC)c1 | – | healthy adult volunteers, plasma | oral, 100 mg, 14 days repeated dosing, fasted, crushed tablet | – | Cmax | 3010 ng/mL |
| Cc1ccc(CCC(=O)Nc2nnc(S(N)(=O)=O)s2)cc1 | – | BALB/c mouse, male, plasma | oral, 20 mg/kg, 8 h | – | unbound plasma concentration | 0.001 ng/mL |
| CNCCOC12CC3(C)CC(C)(CC(Cn4ncc(-c5ccc(N6CCc7cccc(C(=O)Nc8nc9ccccc9s8)c7C6)nc5C(=O)O)c4C)(C3)C1)C2 | – | beagle dog, male, anaesthetised | intravenous bolus, 0.03 mg/kg, 10 min | reference: baseline | dP/dt at 50 change | 10% |
| O=C(Cn1ccnc1)Nc1ccc([C@H]2[C@@H](F)[C@@H](F)C[C@@H](F)[C@H]2F)cc1 | – | human liver microsomes | 1 µM, without NADPH | – | hepatic clearance | 0.234 L/h/kg |
| O=C(Nc1nc2cccc(-c3ccc(CN4CCS(=O)(=O)CC4)cc3)n2n1)C1CC1 | refers to: pain in extremity | human rheumatoid arthritis patients | oral, 30 mg once daily, 4 weeks, regardless of relatedness | – | treatment-emergent adverse events | 0% |
| CCN1/C(=C/C(C)=O)Sc2ccc(F)cc21 | – | cynomolgus monkey | oral, 10 mg/kg, 6 h post-dose | reference: pre-dose | QTc interval change | 101 ± 2.5% |
| CC(=O)O[C@H]1C(=O)[C@@]2(C)[C@H]([C@H](OC(=O)c3ccccc3)[C@]3(O)C[C@H](OC(=O)[C@H](O)[C@@H](NC(=O)c4ccccc4)c4ccccc4)C(C)=C1C3(C)C)[C@]1(OC(C)=O)CO[C@@H]1C[C@@H]2O | noncompartmental analysis | human cancer patients, plasma | intravenous infusion, 80 mg/m^2, cycle 1 day 1, together with: daily oral co-medication | – | volume of distribution | 203 L |

| SMILES | assay | system | setting | how to read | measurement | result |
| --- | --- | --- | --- | --- | --- | --- |
| O=C(O)CCCOc1ccc([18F])cc1-c1cc(-c2ccccc2C(F)(F)F)n(-c2ccccc2)n1 | radio-TLC | ddY mice male, heart | intravenous, 37 MBq, 15 min | – | unchanged fraction of radioactivity | 94.1 ± 3% |
| CC1=NN(/C(=N/c2nnc(C)s2)Nc2ccc(C)c(C)c2)C(c2cc(F)c(F)c(F)c2)S1 (centres unmarked) | plasma stability | human plasma | – | – | half-life | 0.73 h |
| CCOCc1nc(O)c(-c2nnc(Cc3ccc(Cl)cn3)o2)c(O)c1-c1c(OC)cccc1OC | – | rat, post surgery, plasma | oral, 0.2 mg/kg once daily, day 6 post surgery | – | trough concentration | 9 nM |
| Cc1cc(C)c(CNC(=O)c2cc(Cl)c3c(c2C)O[C@@](C)([C@H]2CC[C@H](N(C)C)CC2)O3)c(=O)[nH]1 | ultracentrifugation | glycoprotein, alpha-1-acid, 0.1% | 600 ng/mL, 160 min | – | fu | 0.077 |
| CNC(=O)c1ccc(-c2cnc3ncc(Cc4ccc5ncccc5c4)n3n2)cc1F | – | Japanese patients | oral, 400 mg twice daily, grade 3/4 | – | Teratogenicity patients | 0% |
| NC1(C(=O)N[C@@H](CCO)c2ccc(Cl)cc2)CCN(c2nc[nH]c3nccc2-3)CC1 | – | metastatic CRPC patients | 320 mg b.i.d., grade 3 to 4, treatment-related, together with: enzalutamide 160 mg daily | – | incidence of weight decreased | 0% |
| NC(=O)N1c2ccccc2C=Cc2ccccc21 | refers to: infections and infestations (SOC) | human male | oral, dose not given, CTCAE on-treatment AEs | – | adverse events incidence | 0% |
| O=C(c1ccc(C2CCCCC2)cc1)N1CC(O)C1 | liver microsome stability | cynomolgus liver microsomes | 1 µM | – | hepatic clearance | 2.46 L/h/kg |
| CC(C)(C(=O)N1CCOc2c(C#N)cncc2C1)C(F)F | refers to: Lymphadenopathy | human | oral, 20 mg once daily, 14 days, multiple ascending dose | – | subjects with adverse event | 0% |
| CSCC[C@H](NC(=O)[C@H](CCCCN)NC(=O)[C@H](CCCNC(=N)N)NC(=O)[C@H](CO)NC(=O)[C@H](Cc1c[nH]c2ccccc12)NC(=O)[C@H](CCCNC(=N)N)NC(=O)[C@@H](CC(C)C)NC(=O)[C@@H](N)CCSC)C(=O)N1CCC[C@H]1C(=O)N[C@@H](CS)C(=O)N[C@H](C(=O)N[C@@H](CO)C(N)=O)C(C)C | 12G5 competition, SUP-T1 cells | human plasma | concentration not given, 8 h | – | remaining activity | 77 ± 24% |
| Cc1nc2ccc(F)cc2n1-c1nc(N)c(F)c(Nc2ccc(C(F)(F)F)cc2)n1 | – | human patients, plasma | oral, 300 mg twice weekly, cycles 1 and 2 pooled | – | dose-normalized Cmax | 5.25 ng/mL/mg |
| O=C(N[C@H](Cc1c[nH]c2ccccc12)C(=O)Nc1ccncc1)c1ccc(N2CCN(c3ccc(F)c(F)c3)CC2)cc1F | – | Swiss Webster mouse, female, plasma | oral, 50 mg/kg, 8 h, 20% HPβCD vehicle | – | concentration | 0.06 µM |
| C[C@@H](Nc1cc(F)cc(F)c1)c1cc(C(=O)N(C)C)cc2c(=O)cc(N3CCOCC3)oc12 | refers to: Rash | advanced solid tumour patients | oral, dose not given, dose finding | – | related serious adverse events | 0% |
| O=C(Nc1cnccc1Cl)N1CCN(Cc2ccc3c(c2)OC(F)(F)O3)CC1 | refers to: Ecchymosis | human healthy young men | 75 mg, multiple dose | – | adverse event incidence | 0% |
| CCOc1c([C@H](C)n2nc(C)c3c(N)ncnc32)cc(Cl)c(F)c1[C@@H]1CNC(=O)C1 | refers to: QTcF ≤450 ms | previously treated B-cell malignancy | oral, 15 mg once daily, baseline QTcF ≤450 ms | – | ECG observations | 100% |
| CC1(C)C2CCC1(CS(=O)(=O)[O-])C(=O)C2.[Na+] (racemic) | thermogravimetric analysis | – | nitrogen 10 °C/min | – | degradation onset temperature | 370 °C |
| Cc1ccc([C@@H]2O[C@H](CO)[C@@H](O)[C@H](O)[C@H]2O)cc1Cc1ccc(-c2ccc(F)cc2)s1 | – | Japanese type 2 diabetes patients | 400 mg, day 3, 24 h urine collection | reference: baseline | urinary magnesium excretion change | -10.5 mg |
| O=C(NCCc1cccnc1)c1ccc(C2CCCCC2)cc1 | liver microsome stability | mouse liver microsomes | 1 µM | – | hepatic clearance | 5.1 L/h/kg |
| Cl.[2H]C([2H])([2H])CC(=O)c1cnc(NC(=O)C2CC2)cc1Nc1cccc(-c2ncn(C([2H])([2H])[2H])n2)c1OC | – | human, fasted, multiple dose | oral, 20 mg once daily, tablet, day 14, geometric mean | – | CL/F | 18.2 L/h |
| OC[C@H]1O[C@@H](c2ccc(Cl)c(Cc3ccc(O[C@H]4CCOC4)cc3)c2)[C@H](O)[C@@H](O)[C@@H]1O | – | Japanese type 1 diabetes patients, blood | 2.5 mg, day 28 | reference: baseline | change in LDL cholesterol | 4.54 mg/dL |
| CCc1cc2ncc(CN3CCN(c4ccc(C(=O)NC)nc4)CC3)cc2[nH]c1=O | – | male rat, blood | oral, 50 mg/kg/day, 4 weeks | reference: vehicle control | Lymphocytes count ratio | 0.64 |
| CN(Cc1cccnc1)C(=O)c1ccc([C@H]2[C@@H](F)[C@@H](F)C[C@@H](F)[C@H]2F)cc1 | liver microsome stability | human liver microsomes | 1 µM, without NADPH | – | hepatic clearance | 0.234 L/h/kg |
| N#Cc1ccc2c(c1)[C@H]1CCCN(C(=O)c3ccc4[nH]cnc4c3)[C@H]1C2 | – | human, female | 10 mg, end of trial | – | androstenedione level | 3.2 nmol/L |

Excerpt of the above:
| SMILES | assay | system | setting | how to read | measurement | result |
| --- | --- | --- | --- | --- | --- | --- |
| CNCCOC12CC3(C)CC(C)(CC(Cn4ncc(-c5ccc(N6CCc7cccc(C(=O)Nc8nc9ccccc9s8)c7C6)nc5C(=O)O)c4C)(C3)C1)C2 | – | beagle dog, male, anaesthetised | intravenous bolus, 0.03 mg/kg, 10 min | reference: baseline | dP/dt at 50 change | 10% |
| O=C(Cn1ccnc1)Nc1ccc([C@H]2[C@@H](F)[C@@H](F)C[C@@H](F)[C@H]2F)cc1 | – | human liver microsomes | 1 µM, without NADPH | – | hepatic clearance | 0.234 L/h/kg |
| O=C(Nc1nc2cccc(-c3ccc(CN4CCS(=O)(=O)CC4)cc3)n2n1)C1CC1 | refers to: pain in extremity | human rheumatoid arthritis patients | oral, 30 mg once daily, 4 weeks, regardless of relatedness | – | treatment-emergent adverse events | 0% |
